Measurements of several laboratories.
Each line is one published result; not all experiments were run side by side. ± gives the spread as reported.

Structure (SMILES) | assay | system | setting | scale | quantity | value
CC(=O)[O-].O.O.O.O.[Ni+2].[O-]c1ccc(Br)cc1C=NCCN1CCOCC1 | superoxide scavenging |  | 240 µM |  | inhibition | 60.6%
CCCC[C@H](NC(=O)[C@@H](NC(=O)[C@H](CC(=O)O)NC(=O)[C@H](CCC(N)=O)NC(=O)[C@H](CC(C)C)NC(=O)[C@H](CC(C)C)NC(=O)[C@H](CCCN)NC(=O)[C@H](CCCNC(=N)N)NC(=O)[C@H](C)NC(=O)[C@H](CO)NC(=O)[C@H](CC(C)C)NC(=O)[C@H](CCC(N)=O)NC(=O)[C@H](CC)NC(=O)[C@H](CC(C)C)NC(=O)[C@@H](NC(=O)[C@H](CCCN)NC(=O)[C@H](CCCNC(=N)N)NC(=O)[C@H](Cc1ccc(O)cc1)NC(=O)[C@H](CO)NC(=O)[C@H](CCC(N)=O)NC(=O)[C@@H](NC(=O)[C@H](Cc1ccccc1)NC(=O)[C@@H](NC(=O)[C@H](C)NC(=O)[C@H](CC(=O)O)NC(=O)[C@@H](C)NC(=O)CCc1ccc(O)cc1)[C@@H](C)CC)[C@@H](C)O)C(C)C)[C@@H](C)CC)C(=O)N[C@@H](CC(=O)O)C(=O)N[C@H](CCCNC(=N)N)C(=O)NC | GH release, ELISA | male Sprague-Dawley rat, anaesthetised, serum | subcutaneous, 3 µg/kg, 0 min |  | serum GH level | 24.6 ± 5.3 ng/mL
Cc1nc(C)c(C=[N+]([O-])C(C)(C)C)nc1C | Western blot, measured: PGC-1α | mouse, MPTP model, substantia nigra nuclei | 10 mg/kg |  | protein level increase | 33.6%
COc1ccc2c(c1)c(CC(=O)OCOC(C)=O)c(C)n2C(=O)c1ccc(Cl)cc1 | acetic acid writhing test | BALB/c mouse | intraperitoneal, 30 mg/kg | relative to: negative control | analgesia | 86.2%
Cc1ncc([N+](=O)[O-])n1CCOCc1nnc(SCC(=O)c2ccc(O)cc2)o1 |  |  | 50 µg/mL, 45 min |  | DPPH scavenging | 55.1 ± 0.42%
CC(C)CCC[C@@H](C)[C@H]1CCC([C@@H]2CC[C@H]3C[C@H](O)CC[C@]3(C)[C@H]2O)[C@]1(C)CC(=O)O (stereo partly drawn) | inhibitor | C57BL/6J male mice, antibiotic-treated, liver | oral gavage, 10 mg/kg, with: taurocholic acid 400 mg/kg |  | Fxr mRNA level | inhibited
CCCC[C@H](NC(=O)[C@@H](NC(=O)[C@H](CC(=O)O)NC(=O)[C@H](CCC(N)=O)NC(=O)[C@H](CC(C)C)NC(=O)[C@H](CC(C)C)NC(=O)[C@H](CCCN)NC(=O)[C@H](CCCNC(=N)N)NC(=O)[C@H](C)NC(=O)[C@H](CO)NC(=O)[C@H](CC(C)C)NC(=O)[C@H](CCC(N)=O)NC(=O)[C@H](CC)NC(=O)[C@H](CC(C)C)NC(=O)[C@@H](NC(=O)[C@H](CCCN)NC(=O)[C@H](CCCNC(=N)N)NC(=O)[C@H](Cc1ccc(O)cc1)NC(=O)[C@H](CO)NC(=O)[C@H](CC(N)=O)NC(=O)[C@@H](NC(=O)[C@H](Cc1ccccc1)NC(=O)[C@@H](NC(=O)[C@H](C)NC(=O)[C@H](CC(=O)O)NC(=O)[C@@H](C)NC(=O)[C@H](Cc1ccc(O)cc1)NC)[C@@H](C)CC)[C@@H](C)O)C(C)C)[C@@H](C)CC)C(=O)N[C@@H](CC(=O)O)C(=O)N[C@@H](CCCNC(=N)N)C(=O)NCC | GH release, ELISA | male Sprague-Dawley rat, anaesthetised, serum | subcutaneous, 3 µg/kg, 30 min |  | serum GH level | 137 ± 17.5 ng/mL
Cc1cc(O)cc(O)c1C(=O)c1c2c3c(c(O)cc(C)c3oc1=O)C(=O)c1c(O)cc(O)cc1-2 |  | Bel-7402 xenograft, mouse | intraperitoneal, 14 mg/kg daily, day 21 |  | tumour volume | 817 ± 84 mm³
C=C(c1ccc(C(=O)O)c(F)c1)c1cc2c(cc1C)C(C)(C)C=CC2(C)C | RNA sequencing, measured: Ifit3 mRNA | rat, brain | dose not given, 24 h, single dose | relative to: vehicle | log2 fold change | -0.37
CCCCCCOC(=O)Cc1c(C)n(C(=O)c2ccc(Cl)cc2)c2ccc(OC)cc12 |  | BALB/c mice, acetic acid writhing | intraperitoneal, 20 mg/kg, 20 min count |  | writhing count | 11.5 ± 0.76
Cc1cc(O)c(C=O)c2c1C(=O)Oc1c(CO)c(O)c3c(c1O2)C(O)OC3=O (stereo not drawn) |  | streptozotocin-diabetic male albino rats, serum | dose not given, 9 weeks | relative to: diabetic control | reactive oxygen species level | decreased
CCCC[C@H](NC(=O)[C@@H](NC(=O)[C@H](CC(=O)O)NC(=O)[C@H](CCC(N)=O)NC(=O)[C@H](CC(C)C)NC(=O)[C@H](CC(C)C)NC(=O)[C@H](CCCN)NC(=O)[C@H](CCCNC(=N)N)NC(=O)[C@H](C)NC(=O)[C@H](CO)NC(=O)[C@H](CC(C)C)NC(=O)[C@H](CCC(N)=O)NC(=O)[C@H](CC)NC(=O)[C@H](CC(C)C)NC(=O)[C@@H](NC(=O)[C@H](CCCN)NC(=O)[C@H](CCCNC(=N)N)NC(=O)[C@H](Cc1ccc(O)cc1)NC(=O)[C@H](CO)NC(=O)[C@H](CCC(N)=O)NC(=O)[C@@H](NC(=O)[C@H](Cc1ccccc1)NC(=O)[C@@H](NC(=O)[C@H](C)NC(=O)[C@H](CC(=O)O)NC(=O)[C@@H](C)NC(=O)[C@H](Cc1ccc(O)cc1)NC)[C@@H](C)CC)[C@@H](C)O)C(C)C)[C@@H](C)CC)C(=O)N[C@@H](CC(=O)O)C(=O)N[C@@H](CCCNC(=N)N)C(=O)NC | GH release, ELISA | male Sprague-Dawley rat, anaesthetised, serum | subcutaneous, 3 µg/kg, 30 min |  | serum GH level | 282 ± 18.6 ng/mL
CC12CC(O)C3CC1(OC1OC(CO)C(O)C(O)C1O)C3(COC(=O)c1ccccc1)C(=O)O2 (stereo not drawn) | tail suspension test | mice, reserpine model | 14 mg/kg, 7 days |  | immobility time | 101 ± 11.2 s
CN(C)c1ccc(-c2oc3ccccc3c(=O)c2OCc2ccccc2)cc1 |  | diabetic rat | 7.5 mg/kg, 28 days, p-nitrophenyl β-glucoside induced |  | serum LDL cholesterol | 110 ± 3.31 mg/dL
CCc1nnc(NS(=O)(=O)c2ccc(NC(=S)NC(=O)/C=C/c3ccc(F)cc3)cc2)s1 |  | NXS2 allograft, A/J mice | intraperitoneal, 20 mg/kg daily, 3 weeks | relative to: vehicle | allograft weight | ~63%
C=CC(=O)N1C[C@H](C)N(c2nc(OC[C@@]34CCCN3C[C@H](F)C4)nc3c(F)c(-c4ccc(F)c5sc(N)c(C#N)c45)c(C(F)(F)F)cc23)C[C@H]1C |  | mouse MIA PaCa-2 xenograft | oral, 0.3 mg/kg daily, 28 days |  | tumour growth inhibition | 49%
CCCCCCCOC(=O)Cc1c(C)n(C(=O)c2ccc(Cl)cc2)c2ccc(OC)cc12 | acetic acid writhing test | BALB/c mouse | intraperitoneal, 10 mg/kg | relative to: negative control | analgesia | 46.2%
CCOP(=O)(CC(=O)Nc1ccc(S(=O)(=O)N(CC(N)=O)c2ccc(N(CC(N)=O)S(=O)(=O)c3ccc(OC)cc3)c3ccccc23)cc1)OCC | Western blot | APP/PS1 mice, hippocampus and frontal cortex | 40 mg/kg |  | nuclear Nrf2 protein level | increased
Cc1ccc(C(=O)Nc2ccc(CP(=O)(O)O)cc2CP(=O)(O)O)cc1NC(=O)c1cccc(NC(=O)Nc2cccc(C(=O)Nc3cc(C(=O)Nc4ccc(CP(=O)(O)O)cc4CP(=O)(O)O)ccc3C)c2)c1 |  | human plasma | 470 µM |  | APTT | 83.7 ± 8.6 s
CC(=O)N[C@@H](CC(N)=O)C(=O)NCC(=O)N[C@@H](C)C(=O)N[C@@H](C)C(N)=O | 1H NMR | sodium phosphate buffer 50 mM | pH 6.3, 55 °C |  | rate constant succinimide to α-Asp | 0.077 h⁻¹
O=c1c(OCc2ccccc2)c(-c2ccc(Cl)cc2)oc2ccccc12 |  | diabetic rat | 5 mg/kg, 28 days, p-nitrophenyl β-glucoside induced |  | serum HDL cholesterol | 45.3 ± 2.14 mg/dL
CCS(=O)(=O)c1ccccc1C(=O)N1CCN(c2nc3ccc(F)cc3s2)C[C@@H]1C |  | mouse, brain | 30 mg/kg |  | anandamide level | no effect
COc1ccc(-c2oc3ccccc3c(=O)c2OCc2ccccc2)cc1 |  | diabetic rat | 7.5 mg/kg, 28 days, p-nitrophenyl β-glucoside induced |  | serum LDL cholesterol | 97.9 ± 3.1 mg/dL
C=C(c1cc(F)c(C(=O)O)c(F)c1)c1cc2c(cc1C)C(C)(C)CCC2(C)C | RNA sequencing, measured: Inmt mRNA | rat, brain | dose not given, 24 h, single dose | relative to: vehicle | log2 fold change | 1.93
COc1ccc2c(c1)c(CC(=O)OCC(=O)OC(C)(C)C)c(C)n2C(=O)c1ccc(Cl)cc1 |  | BALB/c mice, acetic acid writhing | intraperitoneal, 30 mg/kg, 20 min count |  | writhing count | 10 ± 1.79
CC[C@H]1[C@@H](O)[C@@H]2[C@H](CC[C@]3(C)[C@@H]([C@H](C)CCOS(=O)(=O)[O-])CC[C@@H]23)[C@@]2(C)CC[C@@H](O)C[C@@H]12.[Na+] |  | ob/ob NASH mouse model | oral, 10 mg/kg once daily, week 4 |  | fasting blood glucose | 8 ± 0.3 mmol/L
C[C@H](NC(=O)COC(=O)[C@H](C)NC(=O)CO)C(=O)O |  | water | pH 3, 37 °C |  | depolymerization rate constant | 0.002 h⁻¹

Repeated from above:
Structure (SMILES) | assay | system | setting | scale | quantity | value
CC(=O)N[C@@H](CC(N)=O)C(=O)NCC(=O)N[C@@H](C)C(=O)N[C@@H](C)C(N)=O | 1H NMR | sodium phosphate buffer 50 mM | pH 6.3, 55 °C |  | rate constant succinimide to α-Asp | 0.077 h⁻¹
O=c1c(OCc2ccccc2)c(-c2ccc(Cl)cc2)oc2ccccc12 |  | diabetic rat | 5 mg/kg, 28 days, p-nitrophenyl β-glucoside induced |  | serum HDL cholesterol | 45.3 ± 2.14 mg/dL
CCS(=O)(=O)c1ccccc1C(=O)N1CCN(c2nc3ccc(F)cc3s2)C[C@@H]1C |  | mouse, brain | 30 mg/kg |  | anandamide level | no effect
